Measured values of several laboratories.
Compare with care: the assays were run in different laboratories. Values joined by “and” are separate records of one study, mostly repeats; a detail may differ. Numbers after ± are the reported error.
Chain of UniProt P36897 (whole entry, looked up): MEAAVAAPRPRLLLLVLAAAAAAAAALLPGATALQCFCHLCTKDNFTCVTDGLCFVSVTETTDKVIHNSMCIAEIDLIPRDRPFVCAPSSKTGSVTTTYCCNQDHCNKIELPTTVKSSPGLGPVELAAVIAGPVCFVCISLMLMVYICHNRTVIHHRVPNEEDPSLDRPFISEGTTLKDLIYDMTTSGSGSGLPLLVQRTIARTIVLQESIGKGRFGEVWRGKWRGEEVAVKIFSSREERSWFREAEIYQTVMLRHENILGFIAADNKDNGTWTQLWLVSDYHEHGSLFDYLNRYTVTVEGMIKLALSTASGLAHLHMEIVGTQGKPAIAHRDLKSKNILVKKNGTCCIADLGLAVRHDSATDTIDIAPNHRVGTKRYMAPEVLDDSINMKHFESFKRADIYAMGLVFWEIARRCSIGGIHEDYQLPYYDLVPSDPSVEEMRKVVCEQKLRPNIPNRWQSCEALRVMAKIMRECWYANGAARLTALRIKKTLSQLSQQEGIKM

| SMILES | tested on | test | test system | setting | scale | measurement | result |
| --- | --- | --- | --- | --- | --- | --- | --- |
| CN1Cc2cc(Cl)ccc2-n2c(nnc2C2CCN(c3cccc([18F])n3)CC2)C1 |  |  | C57BL/6 mouse male, brain | intravenous, dose not given, 30 min, together with: blocking agent 10 mg/kg |  | tissue uptake | 0.78 ± 0.03 %ID/g |
| CCN(CCCCOc1ccc(CCC(=O)N2CCC(Cc3ccccc3)CC2)cc1OC)Cc1ccccc1 |  |  | Sprague-Dawley rats, both sexes, faeces | oral gavage, 25 mg/kg, 12 to 24 h |  | excreted amount | 22300 ± 7120 ng |
| CS(C)(=O)=Nc1ccc(-c2ccc(-c3nc4cc(O[C@@H]5CO[C@H]6[C@@H]5OC[C@H]6O)[nH]c4cc3F)cc2)cc1 | TGFBR1 (Homo sapiens, UniProt P36897) | enzyme activity, inhibitor |  | 10 µM |  | inhibition | -6% |
| CC(C)(CCCC/C=C/CCCCCC(C)(C)C(=O)O)C(=O)O |  |  | ICR mice, both sexes | oral, dose not given, 0.167 h |  | plasma concentration | 22300 ng/mL |
| CC(=O)N[C@@H](CCCNC(=N)N)C(=O)N[C@@H](CCCCN)C(=O)N[C@@H](CCC(=O)N=S(c1ccc(Cl)cc1)c1ccccc1O)C(=O)N[C@H](C(=O)N[C@@H](Cc1ccc(O)cc1)C(N)=O)C(C)C (some centres unmarked) |  | HPLC | 95% FBS in PBS | 0.5 mM, 3 h, pH 7.4, 37 °C |  | hydrolysis | 2% |
| CC(C)[C@@H]1NC(=O)CNC(=O)[C@H](CC(N)=O)NC(=O)[C@H](CCCNC(=N)N)NC(=O)[C@H](Cc2ccc(O)cc2)NC(=O)[C@H](C(C)C)NC(=O)[C@@H](NC(=O)[C@@H](NC(=O)[C@H](CC(N)=O)NC(=O)[C@H](Cc2c[nH]c3ccccc23)NC(=O)[C@H](C)NC(=O)[C@H](Cc2ccccc2)NC(=O)CNC(=O)[C@H](CCCCN)NC(=O)[C@H](Cc2ccccc2)NC(=O)[C@H](Cc2ccccc2)NC(=O)[C@H](CCCCN)NC(=O)OCC2c3ccccc3-c3ccccc32)C(C)C)CSSC[C@@H](C(=O)N[C@@H](Cc2c[nH]cn2)C(=O)N[C@@H](CCCNC(=N)N)C(=O)N[C@@H](CCCNC(=N)N)C(=O)N[C@@H](C)C(=O)N[C@@H](CC(N)=O)C(N)=O)NC(=O)[C@H](C(C)C)NC(=O)[C@H](CCCNC(=N)N)NC1=O |  |  | ICR mice, blood | intraperitoneal, 10 mg/kg, day 5 |  | mean platelet volume | 6.83 ± 0.19 fL |
| CCc1nn(C)c2nc(-c3ccc(C(=O)O)cc3)nc(NCc3ccccc3)c12 |  |  | male CD-1 mouse, plasma | oral, 10 mg/kg, 24 h |  | concentration | 50 ng/mL |
| CC(C)C[C@H](NC(=O)CNC(=O)[C@H](CCC(N)=O)NC(=O)[C@H](CC(C)C)NC(=O)[C@H](CC(C)C)NC(=O)[C@H](CCCNC(=N)N)NC(=O)[C@H](CCC(N)=O)NC(=O)[C@H](CC(C)C)NC(=O)[C@H](CCCNC(=N)N)NC(=O)[C@H](C)NC(=O)CNC(=O)[C@H](CCC(=O)O)NC(=O)[C@H](CCCNC(=N)N)NC(=O)[C@H](CC(C)C)NC(=O)[C@H](CCCNC(=N)N)NC(=O)[C@H](CO)NC(=O)[C@H](CC(C)C)NC(=O)[C@H](CCC(=O)O)NC(=O)[C@H](CO)NC(=O)[C@@H](NC(=O)[C@H](Cc1ccccc1)NC(=O)[C@@H](NC(=O)CNC(=O)[C@H](CC(=O)O)NC(=O)C(C)(C)NC(=O)[C@@H](N)Cc1c[nH]cn1)[C@@H](C)O)[C@@H](C)O)C(=O)N[C@@H](CC(C)C)C(=O)N[C@@H](CCC(N)=O)C(=O)NCC(=O)N[C@@H](CC(C)C)C(=O)N[C@H](C(=O)NCC(=O)N[C@@H](CCCCNC(=O)COCCOCCNC(=O)COCCOCCNC(=O)CC[C@H](NC(=O)CCCCCCCCCCCCCCCCC(=O)O)C(=O)O)C(N)=O)C(C)C |  |  | male C57BL/6J mice, diet-induced obese, plasma | subcutaneous, 300 nmol/kg, 2 h post-dose, day 1 |  | plasma concentration | 893 nM |
| CC(C)(C)C(=O)OCOP(=O)(OCOC(=O)C(C)(C)C)C1CCCN(O)C1=O (centres unmarked) | UO-31 |  |  |  |  | GI50 | 0.306 µM |
| C/C(=N\OCCCN1CCCCC1)c1ccc(C(F)(F)F)cc1 |  |  | mouse, plasma | oral, 50 mg/kg twice daily, day 7 |  | Cmax | 978 ± 478 ng/mL |
| CC(C)[C@H](NC(=O)[C@H](Cc1ccccc1)NC(=O)[C@H](Cc1ccccc1)NC(=O)OCC1c2ccccc2-c2ccccc21)C(=O)N[C@@H](CCC(=O)O)C(=O)N[C@@H](CCC(=O)O)C(N)=O |  | mass spectrometry | mouse, blood | intravenous, 10 mg/kg, single dose |  | half-life | 1.35 h |
| Cc1ccc(OCCN(C)C)cc1C(=O)N[C@H](C)c1cc(-c2cccs2)nc2ccccc12 | Vero E6 |  |  | 7.812 µM |  | viability | 93.1% and 90.4% |
| CCCCCCCCCCCC(=O)C(C)C(=O)N1CCC[C@H]1C(=O)NC(C)(C)C(=O)NC(C)(C)C(=O)NC(C)(C)C(=O)N[C@](C)(CC)C(=O)NCCC(=O)N[C@@H](C)C(=O)N[C@](C)(CC)C(=O)N[C@@H](C)C(=O)N[C@@H](CC(C)C)C(=O)N[C@](C)(CC)C(=O)NCCC(=O)N[C@@H](C)C(=O)N[C@](C)(CC)C(=O)NCCC(=O)N[C@@H](C)C(=O)NC(C)(C)C(=O)NC(C)(C)C(=O)NC(C)(C)C(=O)N[C@@H](C)C(=O)N[C@@H](CC(=O)O)C(=O)O (some centres unmarked) |  | LC-MS | 50% pooled human serum | 40 µM, 30 min, pH 7.5, 37 °C | relative to: 0 h | remaining intact peptide | 61.1% and 62.9% and 56.4% |
| CC[C@H](C)[C@H](NC(=O)[C@H](CCCCN)NC(=O)CNC(=O)[C@H](CC(C)C)NC(=O)[C@H](Cc1ccccc1)NC(=O)[C@H](CCCCN)NC(=O)[C@H](CO)NC(=O)[C@H](Cc1ccccc1)NC(=O)[C@H](Cc1c[nH]c2ccccc12)NC(=O)[C@H](CCC(N)=O)NC(=O)[C@@H](NC(=O)[C@H](Cc1ccccc1)NC(=O)CCCCCNC(=O)CN1CCN(CC(=O)O)CCN(CC(=O)O)CCN(CC(=O)O)CC1)C(C)C)C(=O)N[C@@H](CCC(=O)O)C(=O)N1CCC[C@H]1C(=O)N[C@@H](CC(=O)O)C(=O)N[C@H](C(=O)N[C@@H](CO)C(=O)N[C@@H](CCC(N)=O)C(=O)N[C@H](C(=O)N[C@@H](CCC(N)=O)C(=O)N[C@@H](CC(=O)O)C(=O)N1CCC[C@H]1C(=O)N[C@@H](CC(N)=O)C(=O)N[C@@H](CC(=O)O)C(=O)N[C@@H](CCC(N)=O)C(=O)N[C@@H](Cc1ccc(O)cc1)C(=O)N[C@@H](CCC(=O)O)C(=O)N1CCC[C@H]1C(=O)N[C@@H](Cc1ccccc1)C(=O)O)C(C)C)C(C)C [copper-64 labelled] |  | dynamic PET | mouse both sexes, CT26 tumour, untreated, tumour | intravenous, 100 µCi/mouse, 870 s |  | SUVmean | 0.66 SUV |
| O=C1NC2(CC2)COc2ncc(F)cc2[C@H]2COCCN2c2ccn3ncc1c3n2 |  |  | Sprague-Dawley rat, male, kidneys | oral, 2.5 mg/kg/day, 4 weeks, end of treatment |  | organ-to-brain weight ratio | 147 ± 11.7% |
| CCCCCCCCCCCCCCCC(=O)NCCCCCCNC(=O)C(CCCCNC(=O)CCN1C(=O)CC(SC[C@H](NC(=O)[C@H](CCCNC(=N)N)NC(=O)CNC(=O)[C@H](CCCCN)NC(=O)[C@@H](NC(=O)[C@H](CC(C)C)NC(=O)[C@H](Cc2c[nH]c3ccccc23)NC(=O)[C@H](C)NC(=O)[C@@H](NC(=O)[C@H](Cc2ccccc2)NC(=O)[C@H](CCC(=O)O)NC(=O)[C@H](CCCCN)NC(=O)[C@H](C)NC(=O)[C@H](C)NC(=O)[C@H](CCC(N)=O)NC(=O)CNC(=O)[C@H](CCC(=O)O)NC(=O)[C@H](CC(C)C)NC(=O)[C@H](Cc2ccc(O)cc2)NC(=O)[C@H](CO)NC(=O)[C@H](CO)NC(=O)[C@@H](NC(=O)[C@H](CC(=O)O)NC(=O)[C@H](CO)NC(=O)[C@@H](NC(=O)[C@H](Cc2ccccc2)NC(=O)[C@@H](NC(=O)CNC(=O)[C@H](CCC(=O)O)NC(=O)CNC(=O)[C@@H](N)Cc2c[nH]cn2)[C@@H](C)O)[C@@H](C)O)C(C)C)[C@@H](C)CC)C(C)C)C(N)=O)C1=O)NC(=O)CCN1C(=O)CC(SC[C@H](NC(=O)[C@H](CCCNC(=N)N)NC(=O)CNC(=O)[C@H](CCCCN)NC(=O)[C@@H](NC(=O)[C@H](CC(C)C)NC(=O)[C@H](Cc2c[nH]c3ccccc23)NC(=O)[C@H](C)NC(=O)[C@@H](NC(=O)[C@H](Cc2ccccc2)NC(=O)[C@H](CCC(=O)O)NC(=O)[C@H](CCCCN)NC(=O)[C@H](C)NC(=O)[C@H](C)NC(=O)[C@H](CCC(N)=O)NC(=O)CNC(=O)[C@H](CCC(=O)O)NC(=O)[C@H](CC(C)C)NC(=O)[C@H](Cc2ccc(O)cc2)NC(=O)[C@H](CO)NC(=O)[C@H](CO)NC(=O)[C@@H](NC(=O)[C@H](CC(=O)O)NC(=O)[C@H](CO)NC(=O)[C@@H](NC(=O)[C@H](Cc2ccccc2)NC(=O)[C@@H](NC(=O)CNC(=O)[C@H](CCC(=O)O)NC(=O)CNC(=O)[C@@H](N)Cc2c[nH]cn2)[C@@H](C)O)[C@@H](C)O)C(C)C)[C@@H](C)CC)C(C)C)C(N)=O)C1=O (some centres unmarked) |  |  | Kunming mouse, plasma | subcutaneous, 50 nmol/kg |  | MRT | 11.3 ± 0.5 h |
| Cc1ccc(OCCN(C)C)cc1C(=O)N[C@H](C)c1cc(-c2ccco2)nc2ccccc12 | Vero E6 |  |  | 7.812 µM |  | viability | 102% and 101% |

Excerpt of the above:
| SMILES | tested on | test | test system | setting | scale | measurement | result |
| --- | --- | --- | --- | --- | --- | --- | --- |
| C/C(=N\OCCCN1CCCCC1)c1ccc(C(F)(F)F)cc1 |  |  | mouse, plasma | oral, 50 mg/kg twice daily, day 7 |  | Cmax | 978 ± 478 ng/mL |
| CC(C)[C@H](NC(=O)[C@H](Cc1ccccc1)NC(=O)[C@H](Cc1ccccc1)NC(=O)OCC1c2ccccc2-c2ccccc21)C(=O)N[C@@H](CCC(=O)O)C(=O)N[C@@H](CCC(=O)O)C(N)=O |  | mass spectrometry | mouse, blood | intravenous, 10 mg/kg, single dose |  | half-life | 1.35 h |
| Cc1ccc(OCCN(C)C)cc1C(=O)N[C@H](C)c1cc(-c2cccs2)nc2ccccc12 | Vero E6 |  |  | 7.812 µM |  | viability | 93.1% and 90.4% |
